Experimental data of several laboratories.
Compare with care: the assays were run in different laboratories. Several values in a cell are separate wells, animals, samples, runs or records. ± marks the error that the study gave.
CFTR del508-508: Cystic fibrosis transmembrane conductance regulator (CFTR, Homo sapiens, UniProt P13569, del508-508)
Kelch domain-containing protein 2: Kelch domain-containing protein 2 (UniProt Q9Y2U9)
KCNT1: Potassium channel subfamily T member 1 (KCNT1, Homo sapiens, UniProt Q5JUK3)
YAP1 WW2 domain: Transcriptional coactivator YAP1, WW2 domain (YAP1, Homo sapiens, UniProt P46937)
ERAP1 F803R: Endoplasmic reticulum aminopeptidase 1 (ERAP1, Homo sapiens, UniProt Q9NZ08, F803R)
YAP1 WW1 domain: Transcriptional coactivator YAP1, WW1 domain (YAP1, Homo sapiens, UniProt P46937)
T1: DNA aptamer, truncated, engineered stem; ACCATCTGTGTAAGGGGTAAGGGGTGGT

C[C@]12CC[C@H](O)CC1=CC[C@@H]1[C@@H]2CC[C@]2(C)C(c3cccnc3)=CC[C@@H]12 — conversion to DHEA (CYP17A1 (Homo sapiens, UniProt P05093); enzyme activity; HEK293 expressing CYP17A1; 1 nM, 3 h, together with: [3H]pregnenolone): 2.6%
CC1CNCCN1S(=O)(=O)c1cccc2cnccc12.Cl.Cl (stereo not shown) — bound fibrinogen fluorescence (integrin alphaM beta2 (human); ligand binding, inhibitor, flow cytometry; human neutrophils; concentration not given, 1 h, 37 °C, integrin clustering inhibitor, together with: Alexa 488-labelled fibrinogen; relative to: no inhibitor, lower means less binding): 423 ± 45 MFI
Cc1cc(C)c2cc(C#N)c(NCCNC(=O)c3cnccn3)nc2c1 — Vmax (CFTR del508-508; CFTR correction, corrector, iodide influx rate; FRT expressing YFP-H148Q/I152L; up to 25 µM, 16-20 h, 37 °C, together with: forskolin 20 µM, genistein 50 µM): 174 µM/s
VSDGRHMFVWGG — fraction of protein bound (Kelch domain-containing protein 2; native mass spectrometry; peptide, 200 mM ammonium acetate; 20 µM Kelch domain-containing protein 2, pH 7; relative to: total Kelch domain-containing protein 2 signal): 1.7%
CC(C)C[C@H](NP(=O)(O)O[C@@H]1O[C@@H](C)[C@H](O)[C@@H](O)[C@H]1O)C(=O)N[C@@H](Cc1c[nH]c2ccccc12)C(=O)O — THF Lys-Phe bond cleavage (peptidases; inhibitor; human blood; 7 to 607 µM, 30 min preincubation, 37 °C, together with: THF): inhibited
O=S(=O)(c1cccc(Cl)c1)N1CC(c2nc(-c3ccsc3)no2)C1 — activity class (KCNT1; Tl+ flux, inhibitor; HEK293 expressing KCNT1; 30 µM): inactive
NS(=O)(=O)c1ccc(N2N=C(C(F)(F)F)C[C@H]2c2ccc(F)cc2F)cc1 — IC20 (Prostaglandin G/H synthase 1 (Canis lupus familiaris, UniProt Q8HZR1); TXB2 formation, inhibitor; dog whole blood; 1 h, 37 °C, during clotting): 10.6 µM
CC(C)[C@H](NC(=O)[C@@H](N)[C@@H](C)O)C(=O)N[C@@H](C)C(=O)N1CCC[C@H]1C(=O)N1CCC[C@H]1C(=O)N1CCC[C@H]1C(=O)N1CCC[C@H]1C(=O)N[C@@H](Cc1ccc(O)cc1)C(=O)N[C@@H](CCCNC(=N)N)C(=O)N[C@@H](Cc1c[nH]cn1)C(=O)N[C@@H](CCCNC(=N)N)C(=O)N[C@@H](CC(N)=O)C(=O)O — ΔH (YAP1 WW2 domain; binding, ITC; pH 7.0, 25 °C, WW2 domain): -13.1 ± 0.21 kcal/mol
VGNRGFVFGG — fraction of protein bound (Kelch domain-containing protein 2; native mass spectrometry; peptide, 200 mM ammonium acetate; 20 µM Kelch domain-containing protein 2, pH 7; relative to: total Kelch domain-containing protein 2 signal): 1.4%
C/C(=N/N=c1/scc(-c2ccc(Br)cc2)n1-c1c(C)cccc1C)c1ccc2c(c1)OCCO2 — inhibition (Aldo-keto reductase family 1 member A1 (Bos taurus, UniProt Q3ZCJ2); enzyme activity, inhibitor, absorbance; 1 mM): 33.4%
GSRPQRLLWQTAVRHITEQRFIHGH — koff2 (Calmodulin-1 (Calm1, Rattus norvegicus, UniProt P0DP29, D130A/D94A); Ca2+ dissociation, stopped-flow quin-2 fluorescence; peptide; 2 µM, pH 7.4, 22 °C, together with: Ca2+-calmodulin complex): 67 s⁻¹ and 66.9 s⁻¹
O=S(=O)(Sc1cccc(Br)c1)c1cccc(Br)c1 — inhibition (tubulin; colchicine binding; 5 µM, 10 min, 37 °C, together with: [3H]colchicine 5.0 µM): 20 ± 1%
C=C[C@H](C)C[C@@H]1NC(=O)[C@H]([C@@H](O)C(C)C)N(C)C(=O)[C@H](C)N(C)C(=O)[C@@H]([C@@H](C)CC)NC(=O)[C@@H]([C@H](O)C(C)C)NC(=O)[C@H]2CCCCN2C(=O)[C@H](C)N(C)C1=O — residence time (Elongation factor 1-alpha 1, ternary complex on ribosome (EEF1A1, Homo sapiens, UniProt P68104); inhibitor, smFRET washout; 10 µM, 30 s preincubation, 25 °C): 0.85 min
Nc1ccc(-c2nc([C@H]3CCc4cc(-c5cc(Cl)ccc5-n5cnnn5)cc(=O)n43)c(F)[nH]2)c(F)n1 — FXI activity inhibition (F11 (Homo sapiens, UniProt P03951); human, blood; oral, 80 mg once daily, fed, day 14, 24 h): 61 ± 11.1%
O=c1c(-c2ccc(O)cc2)coc2cc(O)cc(O)c12 — recovery time constant (CNGA1 (Bos taurus, UniProt Q00194); cGMP-activated current, inside-out patch clamp; Xenopus oocytes; after closed-channel dissociation, together with: saturating cGMP): 2.4 s
IAVVQDWGHHRAT (biotinylated) — binding (Complement factor H (CFH, Homo sapiens, UniProt P08603); surface plasmon resonance; peptide; concentration not given, together with: 100 nM factor H): no binding
YSLAAVVLGLVQSLNRQRQKQLLNE — koff1 (Calmodulin-1 (Calm1, Rattus norvegicus, UniProt P0DP29); Ca2+ dissociation, stopped-flow quin-2 fluorescence; peptide; 2 µM, pH 7.4, 22 °C, together with: Ca2+-calmodulin complex): 8.38 s⁻¹ and 8.4 s⁻¹
COc1ccccc1C(=O)N1CCN(c2nc3cc(C)cc(C)c3cc2C#N)CC1 — EC50 (CFTR del508-508; ΔF508-CFTR correction, corrector; FRT; up to 25 µM, 37 °C, together with: forskolin 20 µM + genistein 50 µM): inactive
CCOc1ccccc1S(=O)(=O)N1CC(c2cc(-c3ccc(F)cc3)no2)C1 — activity class (KCNT1; Tl+ flux, inhibitor; HEK293 expressing KCNT1; 30 µM): inactive
O=S(=O)(Sc1ccc(Br)cc1)c1ccc(Br)cc1 — inhibition (tubulin; colchicine binding, [3H]colchicine binding; 50 µM, 10 min, 37 °C, together with: [3H]colchicine 5.0 µM): 80 ± 2%
CC(C)C[C@H](NC(=O)[C@@H](NC(=O)[C@@H](N)[C@@H](C)O)C(C)C)C(=O)N1CCC[C@H]1C(=O)N1CCC[C@H]1C(=O)N1CCC[C@H]1C(=O)N1CCC[C@H]1C(=O)N[C@@H](Cc1ccc(O)cc1)C(=O)N[C@@H](CCCNC(=N)N)C(=O)N[C@@H](C)C(=O)N[C@@H](CCCNC(=N)N)C(=O)N[C@@H](CC(N)=O)C(=O)O — TΔS (YAP1 WW2 domain; binding, ITC; pH 7.0, 25 °C, WW2 domain): -8.62 ± 0.26 kcal/mol
CC[C@H](C)[C@H](NC(=O)[C@H](CC(C)C)NC(=O)[C@H](CC(C)C)NC(=O)CNC(=O)[C@H](Cc1ccc(O)cc1)NC(=O)[C@H](CCCNC(=N)N)NC(=O)[C@H](CO)NC(C)=O)C(=O)N[C@@H](CCCCN)C(=O)N[C@@H](C)C(=O)N[C@@H](Cc1ccccc1)C(=O)N[C@@H](CO)C(=O)N[C@@H](CCSC)C(=O)N[C@H](C(=O)N[C@@H](C)C(=O)N[C@@H](C)C(=O)N[C@@H](CCC(=O)O)C(=O)N[C@H](C(=O)N[C@@H](C)C(=O)N[C@@H](CCCNC(=N)N)C(=O)N[C@@H](CCCNC(=N)N)C(=O)N[C@H](C(=O)N[C@@H](CCCNC(=N)N)C(=O)N[C@@H](CCC(=O)O)C(=O)N[C@@H](Cc1ccccc1)C(=O)N[C@@H](CCCNC(=N)N)C(N)=O)[C@@H](C)O)[C@@H](C)O)[C@@H](C)O — apparent ΔG1 (calmodulin 1-148 sites III and IV; calcium binding, Tyr fluorescence titration; 12 µM, pH 7.4, 22 °C, together with: 6 µM calmodulin): -6.81 ± 0.96 kcal/mol
IINFEKE — Hill coefficient (ERAP1 (Homo sapiens, UniProt Q9NZ08, L733R); substrate; peptide; pH 8.0, 27 °C, mutant L733R, together with: L-AMC, peptide activator 100 µM): 1.4
NC(=Nc1ccccc1)NC(=O)c1nc(Cl)c(N)nc1N — current change (Degenerin mec-4 (mec-4, Caenorhabditis elegans, UniProt P24612, A713T); ion current, two-electrode voltage clamp; Xenopus oocytes coexpressing MEC-2; 30 µM, -85 mV; relative to: uninjected oocytes, positive inhibition, negative potentiation): 5.18 µA
CCOc1ccccc1S(=O)(=O)N1CC(c2ncc(-c3ccc(F)cc3)o2)C1 — efficacy (KCNT1; Tl+ flux, activator; HEK293 expressing KCNT1; 30 µM; relative to: loxapine maximum response): 34%
CCC(C)C(=O)Nc1nc2c(s1)-c1nc(Nc3cc(Cl)ccc3OC)sc1CCC2 (stereo not shown) — Vmax (CFTR del508-508; iodide influx, corrector, YFP halide quenching; FRT cells expressing YFP-H148Q/I152L; 16 to 20 h, 37 °C, genistein 50 µM, together with: forskolin 20 µM): 447 µM/s
IINFEKL — Hill coefficient (ERAP1 F803R; substrate; peptide; pH 8.0, 27 °C, mutant F803R, together with: L-AMC, peptide activator 100 µM): 2
CN(C)N=Nc1[nH]cnc1C(N)=O — binding (T1, DNA aptamer, truncated, engineered stem; electrochemical aptamer sensor; 1 mM): no binding
CC(C)C[C@H](NC(=O)[C@@H](NC(=O)[C@@H](N)[C@@H](C)O)C(C)C)C(=O)N1CCC[C@H]1C(=O)N1CCC[C@H]1C(=O)N1CCC[C@H]1C(=O)N[C@@H](C)C(=O)N[C@@H](Cc1ccc(O)cc1)C(=O)N[C@@H](CCCNC(=N)N)C(=O)N[C@@H](Cc1c[nH]cn1)C(=O)N[C@@H](CCCNC(=N)N)C(=O)N[C@@H](CC(N)=O)C(=O)O — ΔH (YAP1 WW2 domain; binding, ITC; pH 7.0, 25 °C, WW2 domain): -10.1 ± 0.32 kcal/mol
CCOc1ccccc1S(=O)(=O)N1CC(c2nnc(-c3ccc(F)cc3)o2)C1 — efficacy (KCNT1; Tl+ flux, activator; HEK293 expressing KCNT1; 30 µM; relative to: loxapine maximum response): < 10%
N[C@H]1C=C(C(=O)O)CC1(F)F — quinonoid intermediate accumulation (OAT (Homo sapiens, UniProt P04181); stopped-flow spectrophotometry; concentration not given): ~20%
CC(C)C[C@H](NC(=O)[C@@H](NC(=O)[C@@H](N)[C@@H](C)O)C(C)C)C(=O)N1CCC[C@H]1C(=O)N1CCC[C@H]1C(=O)N1CCC[C@H]1C(=O)N1CCC[C@H]1C(=O)N[C@@H](Cc1ccc(O)cc1)C(=O)N[C@@H](CCCNC(=N)N)C(=O)N[C@@H](Cc1c[nH]cn1)C(=O)N[C@@H](CCCNC(=N)N)C(=O)N[C@@H](CC(N)=O)C(=O)O — TΔS (YAP1 WW1 domain; binding, ITC; pH 7.0, 25 °C, WW1 domain): -7.19 ± 0.55 kcal/mol
Cc1cc(=O)oc2cc(NC(=O)[C@@H](N)CC(C)C)ccc12 — Vmax (ERAP1 F803R; hydrolysis of compound, substrate; varied from 0 µM, 5 min, pH 8.0, 27 °C, mutant F803R, no peptide activator): 200 ± 2 nmol/min/µg
O=C(O)/C(O)=C/C=C\F — remaining activity (4-oxalocrotonate tautomerase (Leptothrix cholodnii, UniProt B1Y2E4); enzyme activity, covalent irreversible inhibitor; 500 µM, 16 h, pH 7.3): 30%
C#Cc1ccc(C(F)(F)F)cc1C=O — HRP binding (CD209 antigen (CD209, Homo sapiens, UniProt Q9NNX6); activator, plate-based HRP; 500 µM, overnight, 4 °C or RT; relative to: DMSO control): ≥ 50%
CC(C)C[C@H](NC(=O)[C@@H](NC(=O)[C@@H](N)[C@@H](C)O)C(C)C)C(=O)N1CCC[C@H]1C(=O)N1CCC[C@H]1C(=O)N1CCC[C@H]1C(=O)N1CCC[C@H]1C(=O)N[C@@H](Cc1ccc(O)cc1)C(=O)N[C@@H](CCCNC(=N)N)C(=O)N[C@@H](Cc1c[nH]cn1)C(=O)N[C@@H](C)C(=O)N[C@@H](CC(N)=O)C(=O)O — ΔH (YAP1 WW1 domain; binding, ITC; pH 7.0, 25 °C, WW1 domain): -10.3 ± 0.35 kcal/mol
O=C1CCN1C(=O)OCc1ccccc1 — phosphopantetheine acylation (Erythronolide synthase EryA1, module 2 ACP, holo (eryA, Saccharopolyspora erythraea, UniProt Q03131); substrate, LC-MS of tryptic digest; 10 equivalents, 1 h, pH 7, room temperature): ~80%
N[C@@H](Cc1ccccc1)C(=O)O — relative efflux (SLC7A5 (Homo sapiens, UniProt Q01650); substrate; HEK293 expressing human LAT1; 200 µM, 3 min, together with: [3H]-gabapentin preloaded; relative to: L-phenylalanine): 100%
CC(C)C[C@H](NC(=O)[C@H](C)NC(=O)[C@@H](N)[C@@H](C)O)C(=O)N1CCC[C@H]1C(=O)N1CCC[C@H]1C(=O)N1CCC[C@H]1C(=O)N1CCC[C@H]1C(=O)N[C@@H](Cc1ccc(O)cc1)C(=O)N[C@@H](CCCNC(=N)N)C(=O)N[C@@H](Cc1c[nH]cn1)C(=O)N[C@@H](CCCNC(=N)N)C(=O)N[C@@H](CC(N)=O)C(=O)O — TΔS (YAP1 WW2 domain; binding, ITC; pH 7.0, 25 °C, WW2 domain): -4.54 ± 0.45 kcal/mol
C=CC(=O)Nc1ccccc1Nc1nc(Nc2ccc(N3CCN(C)CC3)cc2)ncc1Cl — probe labelling (AAK1 (Homo sapiens, UniProt Q2M2I8); covalent ligand, chemoproteomic competition; NCI-H23 (KRAS G12C); 1 µM, 2 h, together with: compound-desthiobiotin probe 2 µM): > 50%

A few entries again:
IAVVQDWGHHRAT (biotinylated) — binding (Complement factor H (CFH, Homo sapiens, UniProt P08603); surface plasmon resonance; peptide; concentration not given, together with: 100 nM factor H): no binding
CCOc1ccccc1S(=O)(=O)N1CC(c2nnc(-c3ccc(F)cc3)o2)C1 — efficacy (KCNT1; Tl+ flux, activator; HEK293 expressing KCNT1; 30 µM; relative to: loxapine maximum response): < 10%
